Measured values pooled from the literature.
Numbers after ± are the reported error.
Chain of UniProt P15735 (whole entry, looked up): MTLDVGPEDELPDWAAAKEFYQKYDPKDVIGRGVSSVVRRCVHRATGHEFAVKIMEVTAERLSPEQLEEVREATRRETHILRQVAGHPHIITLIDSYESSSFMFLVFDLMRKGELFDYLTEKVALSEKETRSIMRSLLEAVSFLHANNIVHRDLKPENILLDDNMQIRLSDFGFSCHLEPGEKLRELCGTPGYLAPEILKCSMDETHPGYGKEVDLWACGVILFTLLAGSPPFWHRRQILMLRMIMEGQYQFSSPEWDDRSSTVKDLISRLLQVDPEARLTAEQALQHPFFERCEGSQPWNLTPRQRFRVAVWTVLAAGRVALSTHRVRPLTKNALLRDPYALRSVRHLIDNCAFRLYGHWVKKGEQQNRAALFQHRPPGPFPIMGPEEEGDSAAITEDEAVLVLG

SMILES	target or system	assay	test system	conditions	scale	endpoint	value
O=C1NC2(CC2)COc2ncc(F)cc2[C@H]2COCCN2c2ccn3ncc1c3n2	–	–	Sprague-Dawley rat, female, adrenals	oral, 10 mg/kg/day, 4 weeks, end of treatment	–	organ-to-brain weight ratio	3.6 ± 0.7%
CC[C@H](C)[C@H](NC(=O)[C@H](C)NC(=O)[C@@H](N)Cc1c[nH]cn1)C(=O)N[C@@H](Cc1ccc(O)cc1)C(=O)N1CCC[C@H]1C(=O)N[C@@H](CCCNC(=N)N)C(=O)N[C@@H](Cc1c[nH]cn1)C(=O)N[C@@H](CC(C)C)C(=O)N[C@@H](CCC(=O)O)C(=O)N[C@H](C(=O)N[C@@H](C)C(=O)N[C@H](C(=O)N[C@@H](CC(N)=O)C(=O)N[C@@H](CC(C)C)C(=O)N[C@@H](C)C(=O)N[C@@H](Cc1c[nH]c2ccccc12)C(=O)O)C(C)C)[C@@H](C)O	MEC1	cell growth or viability, flow cytometry	–	90 min	–	IC50	> 14.3 µM
Cc1cc(Oc2nc(N3CC[C@@H](c4ccncc4)C3)ncc2F)[nH]n1	liver cancer cell lines	cell proliferation	–	average over lines	–	IC50	44.7 µM
O=C(C[Se]C(=O)c1cccs1)Nc1cccc(C(F)(F)F)c1	LNCaP	cell growth or viability, MTS	–	48 h	–	IC50	10.5 µM
CCC1=C(C)C2=C(c3ccc(C(=O)NCCNC(=O)c4ccc(P(=NC(=O)c5ccccn5)(c5ccccc5)c5ccccc5)cc4)cc3)c3c(C)c(CC)c(C)n3[B-](F)(F)[N+]2=C1C	IMR-90	cell viability, MTT	–	72 h, 0.1% DMSO	–	IC50	not toxic
O=C1NC(=O)c2c1c1cc(F)c[n+]3c1c1c2c2cc(O)ccc2[n]1[Ru-4]312([N]=C=S)[S+]3CC[S+]1CC[S+]2CC3 (stereo not drawn)	ABL1 (Homo sapiens, UniProt P00519, Q252H)	enzyme activity	–	100 nM, human enzyme, with: 10 µM ATP	baseline: untreated	remaining activity	90%
CCCCCCCC(=O)NCCCC[C@H](NC(=O)CCCCCCC)C(=O)N[C@@H](CCCCNC(=O)CCCCCCC)C(=O)NCC(=O)NCC(=O)NCC(=O)N[C@@H](CS)C(=O)N[C@@H](CCCNC(=N)N)C(=O)N[C@@H](CCCCN)C(=O)N1CCC[C@H]1C(N)=O	HEK293	cell growth or viability, MTT	–	24 h	–	IC50	555 µM
CC(C)C12OC1C1OC13C1(C)CCC4=C(COC4=O)C1CC1OC13C2OC(=O)CCCOC1OC(CO)C(O)C(O)C1O (stereo not drawn)	RPMI-7951	cell growth or viability, XTT	–	47 h	–	IC50	5.95 µM
COc1ccccc1-c1n[nH]c2nc(NC3CCN(C(=O)Cc4ccc(F)cc4F)CC3)ncc12	–	bead binding, competition bead pull-down, measured: LINJ.35.2780	Leishmania donovani axenic amastigote extract	10 µM	baseline: vehicle	relative abundance	0.98
CC1CCC2C(C)C(OC(=O)CCC(=O)N3CCN(CC(=O)Nc4ccc([N+](=O)[O-])c(C(F)(F)F)c4)CC3)OC3OC4(C)CCC1C32OO4 (stereo not drawn)	A2780	cell growth or viability, CCK-8	–	–	–	IC50	0.78 µM
CC(=O)N[C@H](C(=O)N[C@@H](CCCNC(=N)N)C(=O)N[C@@H](CCCCN)C(=O)N[C@@H](CCCNC(=N)N)C(=O)N[C@H](C(=O)N[C@@H](CC(C)C)C(=O)N[C@@H](CCCNC(=N)N)C(=O)N[C@@]1(C)CCCC=CCCC[C@@](C)(C(=O)N[C@@H](CCCNC(=N)N)C(=O)N[C@@H](CCC(=O)O)C(=O)N[C@@H](CC(C)C)C(=O)N[C@H](C(=O)N[C@@H](CCC(=O)O)C(N)=O)C(C)C)NC(=O)[C@H](CCC(N)=O)NC(=O)[C@H](CC(C)C)NC(=O)[C@H](CC(C)C)NC1=O)[C@@H](C)O)C(C)C	A-431 (wild-type EGFR)	cell viability	–	18 h	–	IC50	10 ± 0.54 µM
CS(C)(=O)=Nc1ccc(-c2ccc(-c3nc4cc(O[C@@H]5CO[C@H]6[C@@H]5OC[C@H]6O)[nH]c4cc3F)cc2)cc1	PHKG2 (Homo sapiens, UniProt P15735)	enzyme activity, inhibitor	–	10 µM	–	inhibition	-5%

A few entries again:
SMILES	target or system	assay	test system	conditions	scale	endpoint	value
CC[C@H](C)[C@H](NC(=O)[C@H](C)NC(=O)[C@@H](N)Cc1c[nH]cn1)C(=O)N[C@@H](Cc1ccc(O)cc1)C(=O)N1CCC[C@H]1C(=O)N[C@@H](CCCNC(=N)N)C(=O)N[C@@H](Cc1c[nH]cn1)C(=O)N[C@@H](CC(C)C)C(=O)N[C@@H](CCC(=O)O)C(=O)N[C@H](C(=O)N[C@@H](C)C(=O)N[C@H](C(=O)N[C@@H](CC(N)=O)C(=O)N[C@@H](CC(C)C)C(=O)N[C@@H](C)C(=O)N[C@@H](Cc1c[nH]c2ccccc12)C(=O)O)C(C)C)[C@@H](C)O	MEC1	cell growth or viability, flow cytometry	–	90 min	–	IC50	> 14.3 µM
